Experimental data collected from several papers.
“And” joins repeats or separate records; there may be more than shown. ± marks the error that the study gave.

Structure (SMILES)	system	conditions	how to read	measurement	value
CC(=O)c1c(C)c2cnc(Nc3ccc(C4CCN(CCS(C)(=O)=O)CC4)cn3)nc2n(C2CCCC2)c1=O	mouse Colo-205 xenograft	80 mg/kg twice daily		body weight loss	< 10%
N.N.[Cl][Pt][Cl]	mouse xenograft model	dose not given, day 0		body weight	25 g and 26 g and 24 g
N.N.[Cl][Pt][Cl]	nude mouse MCF7 xenograft	5 mg/kg, day 2		body weight	18.8 ± 0.77 g
CO[C@H]1C[C@@H]2CC[C@@H](C)[C@@](O)(O2)C(=O)C(=O)N2CCCC[C@H]2C(=O)O[C@H]([C@H](C)C[C@@H]2CC[C@@H](OC(=O)NCCOCCOCCOCCOCCOCCOCCOCCOCCC(=O)N3CCc4cc(Cn5nc(-c6ccc7oc(N)nc7c6)c6c(N)ncnc65)ccc4C3)[C@H](OC)C2)C[C@@H](O)[C@H](C)/C=C(\C)[C@@H](O)[C@@H](OC)C(=O)[C@H](C)C[C@H](C)/C=C/C=C/C=C/1C	mouse, HCC1954 xenograft	1 and 3 mg/kg, weekly		body weight	not toxic
CC(C)C[C@H](NC(=O)[C@H](CCCCN)NC(=O)OCC1c2ccccc2-c2ccccc21)C(=O)N[C@H](C(=O)N[C@@H](Cc1ccccc1)C(=O)N[C@@H](Cc1ccccc1)C(=O)N[C@@H](CCCCN)C(=O)NCC(=O)N[C@@H](Cc1ccccc1)C(=O)N[C@@H](C)C(=O)N[C@@H](Cc1c[nH]c2ccccc12)C(=O)N[C@@H](CC(N)=O)C(=O)N[C@H](C(=O)N[C@H]1CSSC[C@@H](C(=O)N[C@@H](Cc2c[nH]cn2)C(=O)N[C@@H](CCCNC(=N)N)C(=O)N[C@@H](CCCNC(=N)N)C(=O)N[C@@H](C)C(=O)N[C@@H](CC(N)=O)C(N)=O)NC(=O)[C@H](C(C)C)NC(=O)[C@H](CCCNC(=N)N)NC(=O)[C@H](C(C)C)NC(=O)CNC(=O)[C@H](CC(N)=O)NC(=O)[C@H](CCCNC(=N)N)NC(=O)[C@H](Cc2ccc(O)cc2)NC(=O)[C@H](C(C)C)NC1=O)C(C)C)C(C)C	ICR mouse	ip, 5 mg/kg	direction not given	body posture score	0
CC(C)(Nc1nc(-c2ccccn2)nc2ccccc12)c1ccccn1	mouse	dose not given, day 3	baseline: pretest	body weight decrease	≤ 21%
CCCCc1nc2cc(/C=C/C(=O)NO)ccc2n1CCN(CC)CC	mouse, MOLM-13 subcutaneous xenograft	75 mg/kg every other day, day 7	baseline: baseline	body weight	104%
COc1cccc2c1C(=O)c1c(O)c3c(c(O)c1C2=O)C[C@@](O)(C(=O)CO)C[C@@H]3O[C@H]1C[C@H](N)[C@H](O)[C@H](C)O1	CD-1 mouse	intravenous, 10 mg/kg	negative means weight gain	body weight loss	-11%
CC(C)C[C@H](NC(=O)CNC(=O)CNC(=O)CNC(=O)[C@H](Cc1ccc(O)cc1)NC(=O)[C@H](CC(C)C)NC(=O)[C@@H](NC(=O)CNC(=O)[C@H](Cc1ccc(O)cc1)NC(=O)[C@H](CCCCN)NC(=O)[C@H](CC(N)=O)NC(=O)[C@@H](NC(=O)[C@H](CCCCN)NC(=O)[C@H](Cc1c[nH]c2ccccc12)NC(=O)CN)[C@@H](C)O)[C@@H](C)O)C(=O)N[C@@H](CCCCN)C(=O)N[C@@H](CCCCN)C(=O)N[C@@H](CC(C)C)C(=O)N[C@@H](CC(C)C)C(=O)N[C@@H](CC(C)C)C(=O)N[C@@H](CC(C)C)C(=O)N[C@@H](CC(C)C)C(=O)N[C@@H](CCCCN)C(=O)N[C@@H](CCCCN)C(=O)N[C@@H](CC(C)C)C(=O)NCC(=O)O	C57BL/6 mouse	intraperitoneal, 40 mg/kg, 5 days	baseline: untreated	body weight	no effect
CC(C)[C@@H]1NC(=O)CNC(=O)[C@H](CC(N)=O)NC(=O)[C@H](CCCNC(=N)N)NC(=O)[C@H](Cc2ccc(O)cc2)NC(=O)[C@H](C(C)C)NC(=O)[C@@H](NC(=O)[C@@H](NC(=O)[C@H](CC(N)=O)NC(=O)[C@H](Cc2c[nH]c3ccccc23)NC(=O)[C@H](C)NC(=O)[C@H](Cc2ccccc2)NC(=O)CN)C(C)C)CSSC[C@@H](C(=O)N[C@@H](Cc2cnc[nH]2)C(=O)N[C@@H](CCCNC(=N)N)C(=O)N[C@@H](CCCNC(=N)N)C(=O)N[C@@H](C)C(=O)N[C@@H](CC(N)=O)C(N)=O)NC(=O)[C@H](C(C)C)NC(=O)[C@H](CCCNC(=N)N)NC1=O	ICR mouse	ip, 5 mg/kg	direction not given	body posture score	0

Excerpt of the above:
Structure (SMILES)	system	conditions	how to read	measurement	value
CCCCc1nc2cc(/C=C/C(=O)NO)ccc2n1CCN(CC)CC	mouse, MOLM-13 subcutaneous xenograft	75 mg/kg every other day, day 7	baseline: baseline	body weight	104%
